Experimental data pooled from the literature.
Each numbered part is a random draw from the data of one study; scales do not carry over between parts. Positions count from the first letter of the parent shown.

Sample 1 — technique: universal PBM; form: double-stranded DNA, one strand shown; matrix: in vitro; tested at: not given; reading: higher = stronger binding
Target: Sal-like protein 4, full length isoform B (SALL4, Homo sapiens, UniProt Q9UJQ4-2, residues 1-616)
Notes: 8-mer, flanks averaged, mean of replicates
The E-score of `AGAGTAGC` is reported as -0.154.
`AATCGCTG` has an E-score of -0.128.
With `AGCCATTG` the E-score was 0.029.
`AAGCCAGC` gave an E-score of -0.259.
`GCTCACGA` has an E-score of -0.2.
The E-score of `TGACAGCA` is reported as 0.00971.
`ACCTTCAC` gave an E-score of -0.038.
For `CAGGCAAC`, the E-score was -0.185.
With `CATCTGGC` the E-score was -0.107.
With `CCTTTCGC` the E-score was -0.0769.

Sample 2 — target: CREB3L1, bZIP domain (human); technique: DHFR protein complementation; matrix: yeast; baseline: wild-type JUN-FOS pair; reading: higher = stronger binding
Notes: single substitutions, most at no-binding floor
Starting sequence: JUN, bZIP domain (human); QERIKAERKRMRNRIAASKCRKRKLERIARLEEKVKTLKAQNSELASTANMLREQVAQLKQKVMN; partner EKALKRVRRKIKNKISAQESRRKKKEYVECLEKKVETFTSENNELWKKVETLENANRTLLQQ
With `A29R` the binding fitness was -1.3 natural log.
The binding fitness of `S43D` is reported as -1.27 natural log.
With `T48E` the binding fitness was -1.44 natural log.
`A40L` has a binding fitness of -1.46 natural log.
For `T48K`, the binding fitness was -1.26 natural log.
`N42Y` gave a binding fitness of -1.51 natural log.
The binding fitness of `K39P` is reported as -1.52 natural log.
For `M51F`, the binding fitness was -1.46 natural log.
`S43V` gave a binding fitness of -1.43 natural log.
With `A46N` the binding fitness was -1.16 natural log.
The binding fitness of `L52G` is reported as -1.51 natural log.
The binding fitness of `A40W` is reported as -1.52 natural log.

Sample 3 — target: CCNF, cyclin fold, Cln2 fusion (human); technique: yeast growth competition, sequencing; matrix: yeast; notes: strong parent motif; baseline: not given; reading: higher = stronger binding
Starting sequence: SLBP docking peptide (human); ARYKRKLLINDFG
For `R5Q`, “normalised enrichment score” read 0.751.
`L7M`: “normalised enrichment score” 1.3.
`K6Y` — result for “normalised enrichment score”: 1.97.
`L8P` — result for “normalised enrichment score”: 1.77.
`A1F` — result for “normalised enrichment score”: 0.97.
`Y3D`: “normalised enrichment score” 1.41.
For `G13C`, “normalised enrichment score” read 1.49.
`I9V`: “normalised enrichment score” 1.06.
For `L7S`, “normalised enrichment score” read 0.762.
For `D11P`, “normalised enrichment score” read 2.77.
For `G13Q`, “normalised enrichment score” read 0.997.
Under “normalised enrichment score”, `L8W` is recorded as 2.23.
For `F12R`, “normalised enrichment score” read 1.63.

Single results of other studies
With `PhoQ, residues 284 288 289 292 302 303 SVHLDV` the fold induction was 5.86 (PhoP, residues 12 14 15 18 19 QYCSL (Escherichia coli, UniProt P23836); Sort-seq, measured: YFP reporter; E. coli; PhoQ-PhoP variant library, added: 10 µM Mg2+; baseline: high Mg2+ state, higher = stronger signaling).

Some of these lines once more (sample 1):
`AAGCCAGC` gave an E-score of -0.259.
`GCTCACGA` has an E-score of -0.2.
`ACCTTCAC` gave an E-score of -0.038.
